Results collected from several papers.
A part holds a random share of what one study measured.

Study 1 — method: RNA Bind-n-Seq; molecule type: RNA; sample: in vitro; concentration: 200 nM; setting: whole 134-nt RNA, ends assumed; added: 150 mM KCl; reference: input library; reading: higher = stronger binding
Target: Fragile X messenger ribonucleoprotein 1, C-terminal low-complexity region (Fmr1, Mus musculus, UniProt P35922)
All sequences stand within: GGGAGUUCUACAGUCCGACGAUC … UGGAAUUCUCGGGUGUCAAGG
Sequence | log2 enrichment
UCCUGUGCUACACAUCGUAUGUACCGAAUCGGGGUUUUUUGGUUUUUUGGUUUUUUGGGAAAGUAUUAUGUUACGCCGUUCGGAUCUGCA | -0.304
UGGCCCUGGUGGCAUGCGGGGAGGAAGAGGUGGCCUCAUGGAUCGUGGUGGUCCCGGUGGGAUGUUCAGAGGUGGCCGUGGUGGAGACAG | 0.0385
CCUCAAGUCCUGUGCUACACAUCGUAUGUACCGAAUCGGGGCGGGCGGGCGGGAAAGUAUUAUGUUACGCCGUUCGGAUCUGCACUUCCA | 0.895
UCAAGUCCUGUGCUACACAUCGUAUGUACCGAAUCGGGUUGGGGUUGGGGUUGGGAAAGUAUUAUGUUACGCCGUUCGGAUCUGCACUUC | 1.3
UAACUUUAGAGGAGGAUCUGAUGGUUAUGGCAGUGGACGUGGAUUUGGGGAUGGCUAUAAUGGGUAUGGAGGAGGACCUGGAGGUGGCAA | 0.329
CCUCAAGUCCUGUGCUACACAUCGUAUGUACCGAAUCGGGUGGGUGGGUGGGGAAAGUAUUAUGUUACGCCGUUCGGAUCUGCACUUCCA | 1.03
UGGGAGGUGGAUUUUGUUUAUUUUUUUAGCUCAUUUCCACGGGUGGGAAUUUUUUUUUAAUAUGUGUCAUGAAUAAAGUUGUUUUUGAAA | 0.0993
AGUCCUGUGCUACACAUCGUAUGUACCGAAUCAAAUUUAAAUUUAAAUUUUUUUAAAAAAGUAUUAUGUUACGCCGUUCGGAUCUGCACU | -1.31

Study 2 — observed: helicase activity; mode: inhibitor; concentration: 20 µM
Target: Replicase polyprotein 1ab, nsp13 helicase (rep, Severe acute respiratory syndrome coronavirus 2, UniProt P0DTD1)
Structure (SMILES) | inhibition [%]
COc1ccc2c(c1)c(CC(=O)O)c(C)n2C(=O)c1ccc(Cl)cc1 | 0.45
COc1cc(CNC(=O)CCCC/C=C/C(C)C)ccc1O | 0.6
C[C@H]1C[C@H]2[C@@H]3CCC4=CC(=O)C=C[C@]4(C)[C@@]3(F)[C@@H](O)C[C@]2(C)[C@@]1(O)C(=O)CO | 4.49
CCCCCCNC(=O)n1cc(F)c(=O)[nH]c1=O | 4.14
Nc1ccncc1 | -0.47
CC(C)NCC(O)COc1cccc2[nH]ccc12 (stereo not shown) | 0.26
CCOC(=O)C1=C[C@@H](OC(CC)CC)[C@H](NC(C)=O)[C@@H](N)C1 | 5.65
Cc1cc(C(C#N)c2ccc(Cl)cc2)c(Cl)cc1NC(=O)c1cc(I)cc(I)c1O (stereo not shown) | 8.27
Cc1nnc(C(=O)NC(C)(C)c2nc(C(=O)NCc3ccc(F)cc3)c(O)c(=O)n2C)o1 | 3.75
CC(C)COCC(CN(Cc1ccccc1)c1ccccc1)N1CCCC1 (stereo not shown) | 4.45

Study 3 — cell line: HEK-293T-ACE2; concentration: concentration not given; reference: vehicle
Structure (SMILES) | cell number [%]
Br.Cc1ccc(Sc2ccccc2N2CCNCC2)c(C)c1 | 94.5
CNC(=C[N+](=O)[O-])NCCSCc1ccc(CN(C)C)o1 | 104
CCN1CC(CCN2CCOCC2)C(c2ccccc2)(c2ccccc2)C1=O.Cl.O (stereo not shown) | 97.5

Single results of other studies
Compound | target | observed | mode | concentration | measurement | result
COc1ccc(C(=O)n2nc(-c3ccccc3)nc2N)cc1OC | Replicase polyprotein 1ab, main protease (rep, Severe acute respiratory syndrome coronavirus 2, UniProt P0DTD1) | enzyme activity | inhibitor | 20 µM | inhibition | 31.5%

Some of these lines once more (study 1):
Sequence | log2 enrichment
UGGCCCUGGUGGCAUGCGGGGAGGAAGAGGUGGCCUCAUGGAUCGUGGUGGUCCCGGUGGGAUGUUCAGAGGUGGCCGUGGUGGAGACAG | 0.0385
CCUCAAGUCCUGUGCUACACAUCGUAUGUACCGAAUCGGGGCGGGCGGGCGGGAAAGUAUUAUGUUACGCCGUUCGGAUCUGCACUUCCA | 0.895
UCAAGUCCUGUGCUACACAUCGUAUGUACCGAAUCGGGUUGGGGUUGGGGUUGGGAAAGUAUUAUGUUACGCCGUUCGGAUCUGCACUUC | 1.3
